# Published values pooled from the literature.
# Numbered parts are unrelated; each lists some results of a single study. Positions count from the first letter of the parent shown.

# Sample 1 — method: protein-binding microarray; form: double-stranded DNA, one strand shown; sample: in vitro; concentration: 2200 nM top; setting: 60-bp whole probe; with: salmon DNA 0.4 mg/ml; baseline: random background probes; reading: higher = stronger binding; all sequences stand within: GCCTAGCAC … GTCTTGATTCGCTTGACGCTGCTG
# Target: Interferon regulatory factor 7, full length, phosphomimetic (IRF7, Homo sapiens, UniProt Q92985, residues 1-503, S471D/S472D/S475D/S476D/S477D/S483D/S484D/S487D)
# Residues (chain): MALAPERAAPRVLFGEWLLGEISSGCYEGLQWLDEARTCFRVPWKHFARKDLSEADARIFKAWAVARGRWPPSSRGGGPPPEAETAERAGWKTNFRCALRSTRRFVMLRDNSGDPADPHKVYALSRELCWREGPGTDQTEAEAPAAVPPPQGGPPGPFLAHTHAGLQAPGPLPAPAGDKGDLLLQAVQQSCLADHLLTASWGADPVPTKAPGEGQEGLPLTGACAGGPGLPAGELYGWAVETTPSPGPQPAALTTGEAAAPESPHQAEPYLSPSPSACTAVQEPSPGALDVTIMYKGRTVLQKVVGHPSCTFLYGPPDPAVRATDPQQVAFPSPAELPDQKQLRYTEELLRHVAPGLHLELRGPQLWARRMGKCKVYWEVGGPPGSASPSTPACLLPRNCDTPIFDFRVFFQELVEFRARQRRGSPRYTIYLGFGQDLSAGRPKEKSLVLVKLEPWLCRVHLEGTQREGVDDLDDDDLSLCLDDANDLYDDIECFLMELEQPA
Oligonucleotide,fitted relative affinity [z-score]
TCATATTTTTTTCTAATACTGTGCTAG,1.18
TTAGGCTTCGGTTTCGGTTAGTGCTAG,6.56
GACGATCTGAGACTGGAGACGTGCTAG,-0.308
GACGGACGGGGGTTTCGGGACGTGCTA,1.51
TTAGATATCGGGTATCTATTAGTGCTA,0.355
CTTGCTCTTGTTTTCACAGGGTGCTAG,1.87
TTAGGTTCAGGTTTCGGTTAGTGCTAG,5.72
TGTGTTGCAGAAACGCCATGGTGCTAG,0.361
TTAGATTTCAGACTGTATTAGTGCTAG,0.212
GACGATAACAGTCTCGAGACGTGCTAG,0.264
TCATCATTTTTTTTCATACTGTGCTAG,1.61
AGGGCAGGGAGGGGGACAGCGTGCTAG,0.471
TCAAGCCTCAGGCCTCACACTGTGCTA,-0.443
TCAAAACTCACTCATGGCACTGTGCTA,-0.373
TTAGGTTTCGGACCGGGTTAGTGCTAG,2.03

# Sample 2 — target: CCNA1, cyclin fold, Cln2 fusion (human); method: yeast growth competition, sequencing; sample: yeast; setting: weak parent motif; baseline: not given; reading: higher = stronger binding
# Parent: HASPIN docking peptide (human); ASLRSVLFGLMNS; partner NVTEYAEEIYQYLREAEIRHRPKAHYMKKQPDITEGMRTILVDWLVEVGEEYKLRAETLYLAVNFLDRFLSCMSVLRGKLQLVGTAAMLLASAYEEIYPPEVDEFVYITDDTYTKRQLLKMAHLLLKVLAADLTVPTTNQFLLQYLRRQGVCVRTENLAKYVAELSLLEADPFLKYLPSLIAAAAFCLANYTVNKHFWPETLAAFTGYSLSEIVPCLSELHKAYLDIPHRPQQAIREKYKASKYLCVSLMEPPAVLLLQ
Substitution,normalised enrichment score
ASLRSVLFGAMNS [L10A],-0.181
ASLRSVAFGLMNS [L7A],0.357
ASLRSVLAGLMNS [F8A],-0.563
ASLASVLFGLMNS [R4A],-0.944
ASLRSVLFGLANS [M11A],0.252
ASLRAVLFGLMNS [S5A],-0.451

# Sample 3 — method: DHFR PCA, dose-response; sample: yeast; setting: Hill fit, mean, not affinity; with: (+)-ABA, dose series; reading: lower = more sensitive
# Target: ABI1, truncated, D143A, DHFR fusion (Arabidopsis thaliana, UniProt P49597)
# Parent: PYL1, truncated, DHFR fusion (Arabidopsis thaliana, UniProt Q8VZS8); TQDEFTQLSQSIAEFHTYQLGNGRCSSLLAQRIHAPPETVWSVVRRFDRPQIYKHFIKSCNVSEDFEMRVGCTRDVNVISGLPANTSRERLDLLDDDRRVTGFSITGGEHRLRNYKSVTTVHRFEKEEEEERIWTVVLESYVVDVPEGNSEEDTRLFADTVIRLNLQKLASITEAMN
Substitution,ABA EC50 [µM]
Q51G,18.3
N85P,77.3
S9E,2.06
P37E,15.2
A175P,11
Q31W,33.7
E152Q,2.78
E130M,3.23
C25H,125
T6V,3.1
T160M,4.44

# Sample 4 — method: protein binding microarray; form: double-stranded DNA, one strand shown; sample: in vitro; concentration: not given; baseline: not given; reading: higher = stronger binding
# Target: Histone acetyltransferase KAT6A, winged helix 2, GST fusion (KAT6A, Homo sapiens, UniProt Q92794, residues 85-181)
# Setting: 8-mer, flanks averaged, mean of 2 arrays, mostly near background
# Target sequence (chain): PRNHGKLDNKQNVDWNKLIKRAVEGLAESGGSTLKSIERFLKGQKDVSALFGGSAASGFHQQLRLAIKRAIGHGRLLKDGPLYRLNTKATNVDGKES
Oligonucleotide,E-score
ACTATTGG,-0.144
GTTCCATA,-0.191
AAGGCCGA,0.1
TGAGAGAA,-0.0222
GCCGGAAA,0.217
CCAATTGA,-0.0281
AGAATCAT,0.0962
CAGTCACC,-0.0328
ATACGAGC,0.0501
ATCGTCTA,-0.148
CGAATATC,-0.0255
ATGAGAGG,-0.228
AACCAACG,-0.0162
AGTTGTCG,0.115
CTCAGTCC,-0.0777
CATAGACA,-0.0362
ATAGTTGC,-0.0259
AACTCCGC,-0.0586

# A few entries again (sample 4):
Oligonucleotide,E-score
TGAGAGAA,-0.0222
ACTATTGG,-0.144
CTCAGTCC,-0.0777
CATAGACA,-0.0362
ATCGTCTA,-0.148
ATGAGAGG,-0.228
AACCAACG,-0.0162
